Measurements of several laboratories.
Every numbered part comes from another study and shows a few of its results, in no order.

Series 1 — technique: protein binding microarray; form: double-stranded DNA, one strand shown; sample: in vitro; concentration: not given; reference: not given; direction: higher = stronger binding
Target: Histone acetyltransferase KAT6A, winged helix 1, GST fusion (KAT6A, Homo sapiens, UniProt Q92794, residues 1-85)
Setting: 8-mer, flanks averaged, mean of 2 arrays, mostly near background
Target sequence (chain): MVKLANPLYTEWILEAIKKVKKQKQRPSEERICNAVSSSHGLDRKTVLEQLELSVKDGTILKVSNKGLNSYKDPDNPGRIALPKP
`AGGTTCTA` gave an E-score of -0.155.
For `ACAAAAAC`, the E-score was -0.00363.
`GCCCAAAA` gave an E-score of -0.199.
`GCACATAA` has an E-score of -0.052.
`GACGGCTA` has an E-score of 0.376.
With `CGGATGTA` the E-score was 0.145.
`CCAGAACG` gave an E-score of 0.00567.
`CCGGGGCC` gave an E-score of 0.209.
The E-score of `AAGATATA` is reported as -0.147.
For `CGTGATAG`, the E-score was 0.0802.
`CGCGTAAC` has an E-score of 0.381.
The E-score of `GAGAAGAC` is reported as -0.00741.
With `CCTTTTAG` the E-score was -0.0807.
`CTTGACTC` gave an E-score of -0.0808.
The E-score of `GTGACGAA` is reported as -0.0994.
`CGTAGGAA` has an E-score of 0.0477.
With `AACGGCGG` the E-score was 0.424.
For `AACTCGGT`, the E-score was -0.112.

Series 2 — technique: RNA Bind-n-Seq; form: RNA; sample: in vitro; concentration: 365 nM; reference: no-protein control; direction: higher = stronger binding
Target: RNA binding protein fox-1 homolog 2, RRM domain, GST-SBP tag (RBFOX2, Homo sapiens, UniProt O43251-10, residues 100-194)
Setting: natural RNA segment, single round, ends assumed
Construct (chain): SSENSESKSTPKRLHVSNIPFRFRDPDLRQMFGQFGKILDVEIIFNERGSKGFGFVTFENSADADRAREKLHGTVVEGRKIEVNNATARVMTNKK
`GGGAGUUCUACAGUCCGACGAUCACCUGAGGGAGCAUUCAGCAAGUCAGUUUGAGAUUAUUUUUCCUUUUCUACGUUGGAACGUGCCCCGGAAUGUGGCCGUCGGCACACUUCUCAGGACAAUGAAUCCUUCCUGGAAUUCUCGGGUGCCAA` — result for “RBNS enrichment (R)”: 0.353.
For `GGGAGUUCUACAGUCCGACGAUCUACUGUAAAGUGGAAUUUCAGGAAGGCUUGUGUGAACCGUUGCGCAUAAAUAAACCCUUUCUACCGGGCUGUGCAACGCUGGUCCUUUCUUGGGCGCUGGUGUGGGGGAUUGGAAUUCUCGGGUGCCAA`, “RBNS enrichment (R)” read 0.327.
`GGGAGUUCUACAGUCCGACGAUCUACUUUUAAAAUUGUACCCAAACCAGGAAAUUCACAGAUGUACUGCAAUCAAACCUAAGCUGUUGCCACAAACCACUAAUGAAACUCAGUGUUUGAGCCAAAUCUCCGCAUGGAAUUCUCGGGUGCCAA`: “RBNS enrichment (R)” 1.74.
For `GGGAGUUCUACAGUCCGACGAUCGCUUUUUCUCUAUUUAGACUGUUUUUGUACUUUACUAAUCUUUAAACUAUCAGGAAAAAAACCAAAACUUUAUACCAAUGAUUUAGUAAUUUUGAGGCAUAGGGUAGCUUUGGAAUUCUCGGGUGCCAA`, “RBNS enrichment (R)” read 0.779.
`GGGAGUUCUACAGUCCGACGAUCCCUUUGGUGGUAUCCAUAUAGGAUGCUAGCCUGCCUUGUAGUAAUGUUUUAUAUGUUAAAAACAAAAUAAAGACAUCAACCAUUUCACAUAUAUUCUACUACUAAAGGUAUGGAAUUCUCGGGUGCCAA`: “RBNS enrichment (R)” 0.408.
`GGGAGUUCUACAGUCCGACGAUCGGCUUGCUCACUGGACACCCACAGAUCUGGCCCUUUGAAAGGCAGCCUUCAGAUGCCCAUCGUGUGAGAGGCGCUGCCUGUUGAUGAAGUGUGUGACCUUUUCUCCUGCUUGGAAUUCUCGGGUGCCAA`: “RBNS enrichment (R)” 0.236.
`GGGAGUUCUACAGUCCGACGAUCCAUUGGUUUUAAUAAACUCUAAGGUAGUUAAAGAUGAAGGGCCAGCAUAUAUUUAUAUGAUAAGUUUAGAUUAUGAGCGUGAGUACCAAUUAAGUUUGAAUGAAUGCCCCUGGAAUUCUCGGGUGCCAA` — result for “RBNS enrichment (R)”: 0.328.
`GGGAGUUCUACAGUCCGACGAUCAAGAGAAGAGACACUAGCCAUAAAAUCUAGUUUCUAUUUAUCAACGUGUUGUGAAGAUGUACCUAAUGAAGUUUUGAGAAAGCACAGGGUUAUAGGUGUUUAAAUUUCCUUGGAAUUCUCGGGUGCCAA` — result for “RBNS enrichment (R)”: 0.449.
`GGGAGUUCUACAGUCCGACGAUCAUCAUUCUUGGCAGGAAUCUGCAAAUGGAAACAUUGUGAGUAUCAGCAAUCUGGGAAGUGACAGGGUUAAUAACUCCUUCCCAGAAGCUGUAUCAUGAGAUUUUGAGGGGUGGAAUUCUCGGGUGCCAA`: “RBNS enrichment (R)” 0.314.
`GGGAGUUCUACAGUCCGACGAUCAUGAGUACUAUAUUGCAAUAAAAUGUAGUGAUAUAAUUAACCAGCCAUUAAAAAUUUACUUCUACAGUACAGUGUCAAUUGAGUUUAUAUAUUAGGUACUUGCAUACUUUUGGAAUUCUCGGGUGCCAA` — result for “RBNS enrichment (R)”: 0.55.
`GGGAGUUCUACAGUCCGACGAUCAACAACCACAAGAAAGGGAGAAGAGGUGCCUGUGGGAGAUUUUGCAGACCUAUUGUGGGUAUAGGUAUUUUCUUCCUGGGGAAGAAUUCAGUUCCCGUCUCAGCUGUACUUGGAAUUCUCGGGUGCCAA`: “RBNS enrichment (R)” 0.513.
`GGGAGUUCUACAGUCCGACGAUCAGAGCAUAUAAUACUAUCUUAGCCAAACUUGCCUUUGCUUCACUCAUCAUGCAGCCUUCUGGGUUGGUUGCUAUAUAUAUCUUUUUUCCUUGAUGUCCCGUUCUCUUCCAUGGAAUUCUCGGGUGCCAA`: “RBNS enrichment (R)” 0.31.

Series 3 — technique: protein-binding microarray; form: double-stranded DNA, one strand shown; sample: in vitro; concentration: 940 nM top; setting: 60-bp whole probe; together with: salmon DNA 0.4 mg/ml; reference: random background probes; direction: higher = stronger binding; shared flanks, not repeated: GCCTAGCAC … GTCTTGATTCGCTTGACGCTGCTG
Target: Interferon regulatory factor 5, full length, phosphomimetic (IRF5, Homo sapiens, UniProt Q13568-2, residues 1-514, S451D/S453D/S456D/S462D)
Under “fitted relative affinity”, `TTAGATTTCGGGACGGGATTAGTGCTA` is recorded as 0.777 z-score.
Under “fitted relative affinity”, `TTAGATTTCAGACTGGATTAGTGCTAG` is recorded as -0.108 z-score.
Under “fitted relative affinity”, `GACGGTTTGCTACTGCTGACGTGCTAG` is recorded as -0.412 z-score.
`TCTTTTATTTTTTTTATTTAGTGCTAG` — result for “fitted relative affinity”: 2.06 z-score.
For `GACGAACGGAGTCTCGAGACGTGCTAG`, “fitted relative affinity” read 0.242 z-score.
`CTTAGACTGTCCTGCTGGAGGTGCTAG`: “fitted relative affinity” -0.597 z-score.
`GAGAAAATGATTTTTTTCATGTGCTAG`: “fitted relative affinity” -0.0134 z-score.
`TTAGATTTCGGGGTTCGATTAGTGCTA` — result for “fitted relative affinity”: 1.44 z-score.
Under “fitted relative affinity”, `TCACCTTTTTTTTTTTTACTGTGCTAG` is recorded as 1.79 z-score.
`TTAGGTTTCCCACTGCTTTAGTGCTAG` — result for “fitted relative affinity”: 1.49 z-score.
`TGAGAACTGAGTTTCGATTAGTGCTAG` — result for “fitted relative affinity”: 8.44 z-score.
Under “fitted relative affinity”, `TTAGATCACAGTTTCGATTAGTGCTAG` is recorded as 6.41 z-score.
`TCATTTCTTTCAAATGAAACTGTGCTA`: “fitted relative affinity” 0.768 z-score.
For `CTCTGCTTGGGTCTGGGTATGTGCTAG`, “fitted relative affinity” read -0.494 z-score.
Under “fitted relative affinity”, `TCAAAAATAGAAACTCGTACTGTGCTA` is recorded as 0.527 z-score.
For `GACGAACTGAGTCTCGAGCCGTGCTAG`, “fitted relative affinity” read 0.298 z-score.
`GAGGAACTGAGTTTCGAGACGTGCTAG`: “fitted relative affinity” 3.5 z-score.
Under “fitted relative affinity”, `TTAGATCTCTGACTGGATTAGTGCTAG` is recorded as -0.277 z-score.
`TTAGGTCTCGGCCTCGGTTAGTGCTAG`: “fitted relative affinity” 2.4 z-score.
Under “fitted relative affinity”, `TCACTTCTCTTTTGGCTACTGTGCTAG` is recorded as 1.72 z-score.
`GACGGTTTCCTACTGCTGACGTGCTAG` — result for “fitted relative affinity”: 0.944 z-score.
For `AGGGTCATCCATCTGAACCAGTGCTAG`, “fitted relative affinity” read -0.0233 z-score.
For `GACGGTTTTGGGACTGGGGACGTGCTA`, “fitted relative affinity” read 1.02 z-score.
For `GACGATCTCCTTTTCCTGACGTGCTAG`, “fitted relative affinity” read 0.864 z-score.
Under “fitted relative affinity”, `TTAGGTATCGACACGGGGTTAGTGCTA` is recorded as 5.42 z-score.

Series 4 — technique: universal PBM; form: double-stranded DNA, one strand shown; sample: in vitro; concentration: not given; direction: higher = stronger binding
Target: Sal-like protein 4, full length isoform B (SALL4, Homo sapiens, UniProt Q9UJQ4-2, residues 1-616)
Setting: 8-mer, flanks averaged, mean of replicates
The E-score of `ATCCCACA` is reported as 0.00367.
`CGCTACGA` gave an E-score of -0.0584.
The E-score of `ACGACCCG` is reported as -0.115.
`AAATGACA` gave an E-score of 0.196.
For `CGCCCCAG`, the E-score was -0.328.
With `GGACAGCC` the E-score was -0.355.
For `CGAGTTAC`, the E-score was -0.0851.
`ATACACCA` gave an E-score of 0.0896.
With `AGTCTGGC` the E-score was -0.266.
`ATAGCCAC` has an E-score of 0.0168.
The E-score of `AGTAATTA` is reported as 0.349.
`GCTAAAAA` has an E-score of 0.135.
For `AGCGTCCC`, the E-score was -0.202.
`CTAATCAG` gave an E-score of 0.0483.
With `TTACAGAA` the E-score was 0.23.
For `CTTGAAAA`, the E-score was 0.275.
The E-score of `GACCACCA` is reported as -0.21.
`CGAGACCG` has an E-score of -0.312.
`CCCCTTAG` gave an E-score of -0.246.
`ATCATCTG` has an E-score of 0.0403.
`CCCCACGC` gave an E-score of -0.182.
The E-score of `AGAACCTA` is reported as -0.0004.

A few entries again (series 3):
For `GACGAACGGAGTCTCGAGACGTGCTAG`, “fitted relative affinity” read 0.242 z-score.
`GAGAAAATGATTTTTTTCATGTGCTAG`: “fitted relative affinity” -0.0134 z-score.
`TTAGGTTTCCCACTGCTTTAGTGCTAG` — result for “fitted relative affinity”: 1.49 z-score.
`TCTTTTATTTTTTTTATTTAGTGCTAG` — result for “fitted relative affinity”: 2.06 z-score.
For `GACGAACTGAGTCTCGAGCCGTGCTAG`, “fitted relative affinity” read 0.298 z-score.
`CTTAGACTGTCCTGCTGGAGGTGCTAG`: “fitted relative affinity” -0.597 z-score.
